Experimental data of several laboratories.
Parts stem from different laboratories: compare values within a part only.

Sample 1
Target: Sal-like protein 4, full length isoform B (SALL4, Homo sapiens, UniProt Q9UJQ4-2, residues 1-616)
Method: universal PBM
Molecule type: double-stranded DNA, one strand shown
Medium: in vitro
Tested at: not given
Setting: 8-mer, flanks averaged, mean of replicates
Reading: higher = stronger binding
| Sequence | E-score |
| --- | --- |
| CACCCAGA | -0.112 |
| CGCGTGTC | -0.157 |
| GGCACTAA | -0.0583 |
| CCCGACGC | -0.369 |
| ATCGCACC | -0.162 |
| CTATCGCC | -0.153 |
| CCTGCGAA | -0.0572 |
| TAGTGCGA | -0.069 |
| ATAGCGTG | 0.0634 |
| CGGGTGAA | -0.17 |
| ACTGTGAC | 0.0644 |
| GGCGTTAA | -0.0772 |
| ACTTCAGA | -0.014 |
| ACGCGAAG | -0.0737 |
| CAGGACAG | -0.184 |
| GTAGTCAC | -0.0581 |
| AGGGATAG | -0.0307 |
| AGTGGCAC | -0.182 |
| ACCAACAA | 0.0599 |
| AGAAGGTG | 0.0161 |
| ACGGTAGC | -0.176 |
| GACACGCC | -0.343 |

Sample 2
Target: Interferon regulatory factor 5, full length, phosphomimetic (IRF5, Homo sapiens, UniProt Q13568-2, residues 1-514, S451D/S453D/S456D/S462D)
Method: protein-binding microarray
Molecule type: double-stranded DNA, one strand shown
Medium: in vitro
Tested at: 940 nM top
Setting: 60-bp whole probe
Added: salmon DNA 0.4 mg/ml
Relative to: random background probes
Reading: higher = stronger binding
Shared flanks, not repeated: GCCTAGCAC … GTCTTGATTCGCTTGACGCTGCTG
| Sequence | fitted relative affinity |
| --- | --- |
| TTAGATCTCAGACTGGATCAGTGCTAG | -0.545 z-score |
| TGGGCTACCTCTCTTAGAATGTGCTAG | -0.221 z-score |
| GAAGGTTTCCTTTCCCTGACGTGCTAG | 2.01 z-score |
| TTAGAACTGGGGACTGGTTTAGTGCTA | 0.0258 z-score |
| TCAGCTCTGTGCATAGGACTGTGCTAG | -0.281 z-score |
| TTTGCTCTGTGCATAGGTCTGTGCTAG | -0.297 z-score |
| GTCGGTTCCCTTTTCCTGACGTGCTAG | 2.25 z-score |
| GACGGTTTCGGGTTTCGAGACGTGCTA | 9.01 z-score |
| GACGGCATCCTTTTCCTGACGTGCTAG | -0.0999 z-score |
| TCATAAATGATATATATCACTGTGCTA | 0.228 z-score |
| TTAGGACTGGAGTATCGGTTAGTGCTA | 2.59 z-score |
| GACGAACTGAGACTGAAGACGTGCTAG | -0.102 z-score |
| TTAGGTTGCGGGTTTCGGTTAGTGCTA | 5.56 z-score |
| AACCTTATTAAGATTGTGCAAGTGCTA | -0.495 z-score |
| GACGAACTGGGGTATTGAGACGTGCTA | 0.165 z-score |
| TCATTTTCATTTTCTGAAACTGTGCTA | 1.56 z-score |

Sample 3
Target: Histone acetyltransferase KAT6A, both winged helices, GST fusion (KAT6A, Homo sapiens, UniProt Q92794, residues 1-181)
Method: protein binding microarray
Molecule type: double-stranded DNA, one strand shown
Medium: in vitro
Tested at: not given
Setting: 8-mer, flanks averaged, mean of 2 arrays, mostly near background
Relative to: not given
Reading: higher = stronger binding
Residues (chain): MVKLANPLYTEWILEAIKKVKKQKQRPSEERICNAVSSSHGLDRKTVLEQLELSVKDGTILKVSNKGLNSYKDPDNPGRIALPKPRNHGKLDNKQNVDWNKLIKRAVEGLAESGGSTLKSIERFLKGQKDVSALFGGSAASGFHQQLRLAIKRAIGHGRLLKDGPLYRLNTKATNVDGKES
| Sequence | E-score |
| --- | --- |
| CCGTGCAG | 0.13 |
| CTATACCA | -0.108 |
| AAGCTTAG | -0.168 |
| CTACCAAA | -0.0308 |
| ATCGGTAG | 0.141 |
| AACAAACA | -0.166 |
| AGCCAAGC | -0.178 |
| CTGGACGA | -0.12 |
| GAACCGTC | 0.152 |
| CATCGCCC | 0.0788 |
| AAGGGTAA | -0.0916 |
| ATGCACAT | -0.0595 |
| ACATTAAA | -0.0902 |
| ATCTATTC | -0.112 |
| ACCCCCGT | 0.102 |
| AGATCTAG | -0.17 |
| ATACGGGG | 0.174 |
| ATGGTAAA | -0.0112 |

Sample 4
Target: RNA binding protein fox-1 homolog 2, RRM domain, GST-SBP tag (RBFOX2, Homo sapiens, UniProt O43251-10, residues 100-194)
Method: RNA Bind-n-Seq
Molecule type: RNA
Medium: in vitro
Tested at: 365 nM
Setting: natural RNA segment, single round, ends assumed
Relative to: no-protein control
Reading: higher = stronger binding
Shared flanks, not repeated: GGGAGUUCUACAGUCCGACGAUC … UGGAAUUCUCGGGUGCCAA
Construct (chain): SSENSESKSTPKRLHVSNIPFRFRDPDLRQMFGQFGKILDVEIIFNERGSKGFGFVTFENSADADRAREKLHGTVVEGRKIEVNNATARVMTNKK
| Sequence | RBNS enrichment (R) |
| --- | --- |
| AUGUACCUCUCUAGUGAAGUAGAUGCGCAAACAUUCAGUGACAGCAAAUCAGUGUUAGUGACAAGCCCCGACCGUGGCGAUGUGCUGGAAAACACGGACCUUUUGGGUUA | 0.4 |
| CACUUAAGUUAUUGUGUUAAACCAAAGUUUACAGUGUCUGUUGGUAGCAAGACCCCCUCCUCCCCUCUACCACCCCCCCCAAGGGUCCAGGGGUCCUACUCGCUUCCCCC | 0.453 |
| CCAGUAUCCUGCGAGCAGCCUUCAGAUGAAGAUGCAGAACUCUCACCUUCUCCUGCACCAUGCCUGCCUGGAUGCUGCCAUGCUCCCACCUUGAUGAUAAUGGACUGAAC | 0.916 |
| UUUGGGGACAGCCCAGUUGCCAUUGUGGGACAGAACCCCAGUCCUGCGUUUCAGGGACAUGGGGAGACAUGAAGAAGGCAGCUGCAGCUUGCUGUGGAGACCCCGUGGCU | 0.297 |
| UUACGGAAAUUUUUUUACCUGACUUGCUAUGAAAAAACUCAUCACACAAGAAGAGAAACAGUAACCUCACUUUGAAAAUUAGCUCCACUCAAGACUAGUCCACGAACGAG | 0.44 |
| UUGGAUAAUUGAUGUUUAGCCAAGGCUGGCCUCAAAAUACUAGUAAUCUUUCUGUAAGCCUCUCAAGUACUGGGAUUACAGGCAUGAACCACCAUGCCUAUAGCCACAGC | 0.184 |
| CUUACGUUUCCGUUUCUUCAUCGGCUGAUUGGAUGCUUACAGGGUUCUCUUGUGACAUGUAUAAGUGCUGCUUACAUCACUCAACAGCAACAGAACGUGGUAGUGGAGUA | 0.28 |
| GAAAGUAAGUCUGAUGGCUUGUUGUUUUGCUGUAGUUGUUUUGAAAAGCCGAAAUCAAAUGGUCAAGGCUGCUGAGGCUAAACUCCAGCAGAGUUUGCAGCGCUGAUGUG | 0.443 |

Sample 5
Target: Fragile X messenger ribonucleoprotein 1, C-terminal low-complexity region (Fmr1, Mus musculus, UniProt P35922)
Method: RNA Bind-n-Seq
Molecule type: RNA
Medium: in vitro
Tested at: 200 nM
Setting: whole 134-nt RNA, ends assumed
Added: 150 mM KCl
Relative to: input library
Reading: higher = stronger binding
Shared flanks, not repeated: GGGAGUUCUACAGUCCGACGAUC … UGGAAUUCUCGGGUGUCAAGG
| Sequence | log2 enrichment |
| --- | --- |
| UCUCCCAUCAAAGGACGUGCACAGCCUUAUGAUCCCAAUUUUUACGAUGAAACCUAUGAUUAUGGUGGUUUUACAAUGAUGUUUGAUGAC | 1.09 |
| UUACACCAAUGAGAAGCUGCAGCAGCUCUUCAACCACACCAUGUUCAUCCUGGAGCAGGAGGAGUACCAGCGCGAGGGCAUCGAGUGGAA | -0.67 |
| CAAGUCCUGUGCUACACAUCGUAUGUACCGAAUCGGGGAGGGGAAAGGGGUGGGGAAAGUAUUAUGUUACGCCGUUCGGAUCUGCACUUC | 1.15 |
| AGUCCUGUGCUACACAUCGUAUGUACCGAAUCGGGUUUUGGGGUUUUGGGGUUUUGGGAAAGUAUUAUGUUACGCCGUUCGGAUCUGCAC | 0.489 |
| CCUGUGCUACACAUCGUAUGUACCGAAUCGGGUUUUUUUGGUUUUUUUGGGUUUUUUUGGGAAAGUAUUAUGUUACGCCGUUCGGAUCUG | -0.874 |
| UCAAGUCCUGUGCUACACAUCGUAUGUACCGAAUCGGGCCGGGGCCGGGCCGGGAAAGUAUUAUGUUACGCCGUUCGGAUCUGCACUUCC | 0.261 |
| AGUCCUGUGCUACACAUCGUAUGUACCGAAUCGGUUUUGGGGUUUUGGGGUUUUGGGGAAAGUAUUAUGUUACGCCGUUCGGAUCUGCAC | 0.121 |
| UCCUUUUUUUUUUUCUUUGAAUGUAUUUAUUUCUUGUAGUCUACUGGUGCUGUUGUGACGGAGAGCCAGACGUACAAAAACCGAGCUGGU | 0.554 |
| CUGUGCUACACAUCGUAUGUACCGAAUCGGGGAAAAAAAGGGGAAAGGGGUUUUUUUGGGGAAAGUAUUAUGUUACGCCGUUCGGAUCUG | -0.294 |

Excerpt of the above (sample 3):
| Sequence | E-score |
| --- | --- |
| ACATTAAA | -0.0902 |
| ATCTATTC | -0.112 |
| ACCCCCGT | 0.102 |
| AGATCTAG | -0.17 |
